Measurements of several laboratories.
Parts stem from different laboratories: compare values within a part only.

Set 1
Target: Interferon regulatory factor 3, full length, phosphomimetic (IRF3, Homo sapiens, UniProt Q14653, residues 1-427, S386D/S396D/S398D/S402D/T404D/S405D)
Method: protein-binding microarray
Form: double-stranded DNA, one strand shown
Sample: in vitro
Concentration: 2540 nM top
Setting: 60-bp whole probe
Added: salmon DNA 0.4 mg/ml
Relative to: random background probes
Reading: higher = stronger binding
Residues (chain): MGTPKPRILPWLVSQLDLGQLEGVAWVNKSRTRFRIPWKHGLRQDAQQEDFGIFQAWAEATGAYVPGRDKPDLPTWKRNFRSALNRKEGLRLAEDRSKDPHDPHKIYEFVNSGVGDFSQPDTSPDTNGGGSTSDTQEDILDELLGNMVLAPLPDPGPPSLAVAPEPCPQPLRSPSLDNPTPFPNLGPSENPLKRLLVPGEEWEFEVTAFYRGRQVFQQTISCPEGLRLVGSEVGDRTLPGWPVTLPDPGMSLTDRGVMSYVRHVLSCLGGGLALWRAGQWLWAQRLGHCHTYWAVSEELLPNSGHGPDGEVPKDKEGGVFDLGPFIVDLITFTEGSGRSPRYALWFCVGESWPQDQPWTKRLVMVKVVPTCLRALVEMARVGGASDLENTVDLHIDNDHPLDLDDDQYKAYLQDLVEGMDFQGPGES
| Sequence | fitted relative affinity [z-score] |
| --- | --- |
| GCCTAGCACTTAGGACTGCTTTTGCTTTAGTGCTAGGTCTTGATTCGCTTGACGCTGCTG | -0.0816 |
| GCCTAGCACGAGGGTTTCGACACTGGGGACGTGCTAGTCTTGATTCGCTTGACGCTGCTG | 1.32 |
| GCCTAGCACGGGCAGGAAACGGAGGACACGTGCTAGGTCTTGATTCGCTTGACGCTGCTG | -0.493 |
| GCCTAGCACTCAGTTTCGTATCTTCATTGTGTGCTAGTCTTGATTCGCTTGACGCTGCTG | 7.72 |

Set 2
Target: Sal-like protein 4, full length isoform B (SALL4, Homo sapiens, UniProt Q9UJQ4-2, residues 1-616)
Method: universal PBM
Form: double-stranded DNA, one strand shown
Sample: in vitro
Concentration: not given
Setting: 8-mer, flanks averaged, mean of replicates
Reading: higher = stronger binding
Construct (chain): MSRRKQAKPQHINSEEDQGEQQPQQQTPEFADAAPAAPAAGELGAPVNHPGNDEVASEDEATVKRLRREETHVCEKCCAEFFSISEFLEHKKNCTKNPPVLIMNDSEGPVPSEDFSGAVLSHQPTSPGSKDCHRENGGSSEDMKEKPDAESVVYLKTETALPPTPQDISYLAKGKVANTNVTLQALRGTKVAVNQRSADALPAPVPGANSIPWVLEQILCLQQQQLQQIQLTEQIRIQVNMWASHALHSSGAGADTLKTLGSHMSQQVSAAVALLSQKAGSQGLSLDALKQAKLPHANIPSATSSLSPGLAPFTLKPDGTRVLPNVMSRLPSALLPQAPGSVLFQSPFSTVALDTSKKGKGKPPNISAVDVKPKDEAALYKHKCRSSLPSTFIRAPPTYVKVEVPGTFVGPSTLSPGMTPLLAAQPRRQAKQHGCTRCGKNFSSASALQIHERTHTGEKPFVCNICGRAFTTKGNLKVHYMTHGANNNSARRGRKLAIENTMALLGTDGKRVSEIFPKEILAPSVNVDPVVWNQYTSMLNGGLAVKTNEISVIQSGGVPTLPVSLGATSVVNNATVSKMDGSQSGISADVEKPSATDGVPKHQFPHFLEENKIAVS
| Sequence | E-score |
| --- | --- |
| GGGCATAA | 0.0751 |
| GTTCCTCA | -0.05 |
| GCACATCA | -0.00047 |
| CAGGAAAA | 0.0541 |
| CGTGTGAA | -0.053 |

Set 3
Target: Histone acetyltransferase KAT6A, both winged helices, GST fusion (KAT6A, Homo sapiens, UniProt Q92794, residues 1-181)
Method: protein binding microarray
Form: double-stranded DNA, one strand shown
Sample: in vitro
Concentration: not given
Setting: 8-mer, flanks averaged, mean of 2 arrays, mostly near background
Relative to: not given
Reading: higher = stronger binding
Residues (chain): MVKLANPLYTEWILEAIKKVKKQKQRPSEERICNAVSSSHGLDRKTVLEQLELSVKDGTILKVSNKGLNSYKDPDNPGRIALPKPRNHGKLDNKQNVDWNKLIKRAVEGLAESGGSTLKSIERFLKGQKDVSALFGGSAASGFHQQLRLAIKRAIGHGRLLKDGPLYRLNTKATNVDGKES
| Sequence | E-score |
| --- | --- |
| ACTCCAAC | -0.138 |
| ATCGCACC | 0.0585 |
| ATTCCGCG | 0.239 |
| CTAACGCA | 0.123 |

Mixed results
| Substance | target | test | system | conditions | how to read | quantity | value |
| --- | --- | --- | --- | --- | --- | --- | --- |
| PhoQ, residues 284 288 289 292 302 303 NLMGRA | PhoP, residues 12 14 15 18 19 NHTVL (Escherichia coli, UniProt P23836) | Sort-seq, measured: YFP reporter | E. coli | PhoQ-PhoP variant library, added: 10 µM Mg2+ | relative to: high Mg2+ state, higher = stronger signaling | fold induction | 9.74 |

A few entries again (set 2):
| Sequence | E-score |
| --- | --- |
| GTTCCTCA | -0.05 |
